Experimental data gathered from unrelated publications.
Lines come from different studies, so protocols differ. Several values in a cell are separate wells, animals, samples, runs or records. Numbers after ± are the reported error.
Pancreatic alpha-amylase: Pancreatic alpha-amylase (Homo sapiens, UniProt P04746)
Nuclear receptor subfamily 2 group C member 2 ligand-binding domain: Nuclear receptor subfamily 2 group C member 2, ligand-binding domain (Homo sapiens, UniProt P49116)

`O=c1nc(SCc2cc(F)cc(C(F)(F)F)c2)nc(SCc2ccc3sccc3c2)[nH]1` has a decatenated DNA of 0.14% (TOP2A (Homo sapiens, UniProt P11388); decatenation; 31.25 µM, replicate 1).
With `Nc1nc2c(ncn2[C@@H]2O[C@H](COP(=O)(O)OP(=O)(O)O)[C@@H](O)[C@H]2O)c(=O)[nH]1` the -TΔS was 3.17 kcal/mol (GUK1 (Homo sapiens, UniProt Q16774, R137A); binding, ITC; together with: GMP).
For `CC[C@@H]1[C@H](F)C(=O)N[C@@H]1COc1nccc2cc(C(N)=O)c(OC)cc12`, the inhibition was 15.9% (MARK4 (Homo sapiens, UniProt Q96L34); ATP-site probe binding, ActivX profiling; THP-1 cell lysate; 0.04 mM, Lys2 site).
Under “concentration for complete inhibition”, `Nc1ncnc2c1ncn2[C@@H]1O[C@H](COP(=O)(O)OP(=O)(O)O)[C@@H](O)[C@H]1O` is recorded as 1 to 1.2 mM (ATP-sensitive inward rectifier potassium channel 1 (Rattus norvegicus, UniProt P35560); channel activity, inhibitor, inside-out patch clamp; pH 7.4, Mg2+-free, no second inhibitory nucleotide).
`CC[C@H](C)[C@H](NC(=O)[C@H](CCC(=O)O)NC(=O)[C@H](CCC(=O)O)NC(=O)[C@@H]1CCCN1C(=O)[C@H](CC(=O)O)NC(=O)[C@H](C)NC(=O)[C@H](CCC(N)=O)NC(=O)[C@@H](NC(=O)[C@H](C)NC(=O)[C@@H](NC(=O)[C@H](CO)NC(=O)[C@@H](NC(=O)[C@H](CCCCN)NC(=O)[C@@H](N)Cc1ccc(O)cc1)[C@@H](C)O)C(C)C)[C@@H](C)O)C(=O)N[C@H](C(=O)N[C@H](C(=O)N[C@@H](CC(C)C)C(=O)N[C@@H](COP(=O)(O)O)C(=O)N[C@@H](CC(=O)O)C(=O)N[C@@H](COP(=O)(O)O)C(=O)N[C@@H](CC(=O)O)C(=O)O)C(C)C)[C@@H](C)CC`: “enthalpy change (ΔH)” 1.62 ± 0.52 kcal/mol (Small ubiquitin-related modifier 1 (Homo sapiens, UniProt P63165, C52A); isothermal titration calorimetry; concentration not given, pH 7.4, SUMO1 construct).
With `CCCC[C@H]1CN(c2cccc(OC(F)(F)F)c2)C(=O)CN1Cc1cncn1Cc1ccc(F)cc1` the IC50 was 710 ± 240 nM (Cryptococcus neoformans farnesyltransferase; enzyme activity, inhibitor, fluorescence; together with: 1 µM FPP, 0.5 µM dansylated peptide).
`O=C1OC(c2ccccc2)=N/C1=C\c1cccc(O)c1` has a Km of 1380 µM (Pancreatic alpha-amylase; inhibitor, Lineweaver-Burk; 100 ppm, together with: starch substrate).
`NCCCC(=O)O` — result for “normalised MST signal”: 0.0105 (SLC6A6 (Homo sapiens, UniProt P31641, Y138A); binding, microscale thermophoresis; 125 µM, room temperature, together with: 50 nM labelled protein; higher = more binding).
For `CNC(=O)c1cc(Oc2ccc(NC(=O)Nc3ccc(Cl)c(C(F)(F)F)c3)c(F)c2)ccn1`, the koff was 3.74e-05 s⁻¹ (Nuclear receptor subfamily 2 group C member 2 ligand-binding domain; SPR imaging; 600 nM).
Under “thermal stability ratio”, `O=C(COP(=O)(O)O)[C@@H](O)[C@H](O)[C@H](O)COP(=O)(O)O` is recorded as 0.692 (Large ribosomal subunit protein uL30 (Homo sapiens, UniProt P18124); thermal proteome profiling, measured: RPL7; HepG2 cell lysate; concentration not given, 57 over 37 °C, mean; baseline: compound over control).
For `Oc1ccc(/C=C/c2cc(O)cc(O)c2)cc1`, the binding stoichiometry was 0.68 ± 0.013 sites (O-methyltransferase (Sorghum bicolor, UniProt A0A1B6PFV1); isothermal titration calorimetry; concentration not given, apo protein).
With `CC[C@@H](C)[C@@H](NC(=O)[C@@H](Cc1ccc(O)cc1)NC(=O)[C@H]1CCCN1C(=O)[C@@H](CCCNC(=N)N)NC(=O)[C@H](N)Cc1c[nH]cn1)C(=O)N[C@H](C)C(=O)N[C@H](Cc1c[nH]cn1)C(=O)N[C@H](CCCNC(=N)N)C(=O)N[C@@H](C(=O)N[C@H](Cc1ccc(O)cc1)C(=O)N[C@H](CO)C(=O)N[C@H](Cc1ccccc1)C(N)=O)C(C)C` the surface expression was 0.983 and 1.02 (Transferrin receptor protein 1 (Tfrc, Mus musculus, UniProt Q62351); flow cytometry; RAW264.7; 6 h, pH 7.4, unit not given; baseline: 0 h).
`C[C@H](N)C(=O)N[C@@H](CCCNC(=N)N)C(=O)N[C@H](C(=O)N[C@@H](CCCCN(C)C)C(=O)N[C@@H](CCC(N)=O)C(=O)N[C@H](C(=O)N[C@@H](C)C(=O)N[C@@H](CCCNC(=N)N)C(=O)N[C@@H](CCCCN)C(=O)N[C@@H](CO)C(=O)N[C@H](C(=O)NCC(=O)NCC(=O)N[C@@H](CCCCN)C(=O)N[C@@H](C)C(=O)N[C@@H](Cc1ccc(O)cc1)C(=O)O)[C@@H](C)O)[C@@H](C)O)[C@@H](C)O` gave a binding enthalpy of -5.46 kcal/mol (Transcriptional regulator ATRX (ATRX, Homo sapiens, UniProt P46100, F284Y/K251R); isothermal titration calorimetry; concentration not given, pH 7.5, 25.0 °C).
For `CC(C)C[C@@H]1NC(=O)[C@H](C(C)C)NC(=O)CNC(=O)[C@H](CC(N)=O)NC(=O)[C@@H]2CCCN2C(=O)[C@H](Cc2ccc(O)cc2)NC(=O)[C@H](CCCNC(=N)N)NC(=O)[C@H](Cc2ccccc2)NC(=O)[C@@H](NC(=O)[C@H](CCCCN)NC(=O)[C@H](C)NC(=O)[C@H](CO)NC(=O)[C@H](C)NC(=O)[C@@H](N)Cc2ccc(O)cc2)CSSC[C@@H](C(=O)N[C@H](C(N)=O)[C@@H](C)O)NC(=O)[C@H](C)NC1=O`, the binding stoichiometry was 0.146 (Alpha-2-HS-glycoprotein, asialo (AHSG, Bos taurus, UniProt P12763); isothermal titration calorimetry; concentration not given, pH 7.0, 25 °C, together with: asialofetuin).
`C=CC(=O)N1CCC(COCC(=O)N2CCN(c3nc(-c4cnc(N)nc4C(F)F)nc(N4CCOC[C@@H]4C)n3)CC2)CC1` gave a remaining binding of 100% (EGFR (Homo sapiens, UniProt P00533, L861Q); KINOMEscan; 1 µM; baseline: DMSO control).
For `COc1cnc(NS(=O)(=O)c2ccc(N)cc2)nc1`, the koff was 1.84e-07 s⁻¹ (Nuclear receptor subfamily 2 group C member 2 ligand-binding domain; SPR imaging; 600 nM).
`Cc1ncccc1OC[C@H]1CN(CCN2CCc3ccccc32)CCO1` has an inhibition of 26.5% (HTR1A (Homo sapiens, UniProt P08908); radioligand binding; concentration not given, together with: [3H]8-OH-DPAT).
Under “log fold enrichment”, `COCCC(=O)N1CCC(Oc2ccccc2)C1` (stereo not shown) is recorded as -0.111 (DCAF1 (Homo sapiens, UniProt Q9Y4B6); binding, affinity selection mass spectrometry; baseline: other proteins in batch).
The koff of `Cc1nnc(NS(=O)(=O)c2ccc(N)cc2)s1` is reported as 4.16e-07 s⁻¹ (Nuclear receptor subfamily 2 group C member 2 ligand-binding domain; SPR imaging; 600 nM).
Under “Pearson correlation coefficient”, `CC(=C/C(=O)O)/C=C/C=C(\C)C1C=C2C(C)(C)CCCC2(C)O1` (stereo not shown) is recorded as 0.68 (Rhodopsin (RHO, Homo sapiens, UniProt P08100, P23H); ER retention, immunostaining co-localization, measured: opsin with calnexin; COS-7 transfected P23H; 5.00 µM).
`O=C(c1ccc(C(=O)N2CCC(N3CCCC3)CC2)c(Nc2ccccc2)c1)N1CCC(N2CCCC2)CC1` has a viability of 134% (OCI-Ly1; 1 µM, 120 h).
With `Oc1ccc([C@@H]2c3c(O)cc(O)cc3[C@@H]3c4c(cc(O)c5c4[C@@H]2[C@H](c2ccc(O)cc2)[C@H]5c2cc(O)cc4c2[C@@H](c2cc(O)cc(O)c2)[C@H](c2ccc(O)cc2)O4)O[C@H]3c2ccc(O)cc2)cc1` the Vmax was 1370 ± 182 µmol/min (Pancreatic alpha-amylase; enzyme activity; 5 µM).
The reaction rate of `Nc1nc2c(ncn2[C@@H]2O[C@H](COP(=O)(O)O)[C@@H](O)[C@H]2O)c(=O)[nH]1` is reported as 1.05 s⁻¹ and 0.738 s⁻¹ and 0.608 s⁻¹ (GUK1 (Homo sapiens, UniProt Q16774, R148A); enzyme activity, NADH-coupled; 1000 µM).
`NCCCCCC(=O)O` gave a koff of 2.39e-05 s⁻¹ (Nuclear receptor subfamily 2 group C member 2 ligand-binding domain; SPR imaging; 600 nM).
For `Nc1ncnc2c1ncn2[C@@H]1O[C@H](COP(=O)(O)CP(=O)(O)OP(=O)(O)O)[C@@H](O)[C@H]1O`, the specific binding was 1010 corrected cpm and 1520 corrected cpm and 1090 corrected cpm (P2X purinoceptor 1 (P2RX1, Homo sapiens, UniProt P51575, E122A); saturation binding; 130 nM).
`CCS(=O)(=O)c1nc(C2CC2)cc(C(F)(F)F)n1` — result for “cells with nuclear reporter”: 2.81% and 3.99% and 7.31% (Exportin-1 (XPO1, Homo sapiens, UniProt O14980); nuclear export, high content imaging; HeLa Kyoto reporter; 1.58 µM, 2 h).
The viability of `CN(C)c1ccc(C(=O)NCCCCCC(=O)NO)cc1` is reported as 177% (OCI-Ly1; 0.1 µM, 120 h).
For `Cc1ccccc1C1CC(=O)c2c(C)nc(N)nc2C1` (stereo not shown), “log fold enrichment” read -0.0483 (Coatomer subunit beta', WD repeat domain (Homo sapiens, UniProt P35606); binding, affinity selection mass spectrometry; baseline: other proteins in batch).
The MPO activity of `NC/C(=C\F)COc1cccc(Cn2c(=S)[nH]c(=O)c3[nH]cnc32)c1` is reported as 66.8% and 53.2% and 14.6% and 13.4% and 61% and 42.6% (Myeloperoxidase (Mus musculus, UniProt P11247); mouse, zymosan or thioglycolate peritonitis, peritoneal fluid; 60 mg/kg; baseline: peritonitis vehicle).
The fold enrichment of `CC1CCCN(C(=O)c2cc3ncccn3n2)C1` (stereo not shown) is reported as 0.837 (S-phase kinase-associated protein 1 (SKP1, Homo sapiens, UniProt P63208); binding, affinity selection mass spectrometry; baseline: other proteins in batch).
`C=CC(=O)N1CCC(C(=O)NCC(=O)N2CCN(c3nc(-c4cnc(N)nc4C(F)F)nc(N4CCOCC4)n3)CC2)CC1` gave a remaining binding of 100% (EGFR (Homo sapiens, UniProt P00533); KINOMEscan; 1 µM).

For quick reference, copied from above:
For `CC(C)C[C@@H]1NC(=O)[C@H](C(C)C)NC(=O)CNC(=O)[C@H](CC(N)=O)NC(=O)[C@@H]2CCCN2C(=O)[C@H](Cc2ccc(O)cc2)NC(=O)[C@H](CCCNC(=N)N)NC(=O)[C@H](Cc2ccccc2)NC(=O)[C@@H](NC(=O)[C@H](CCCCN)NC(=O)[C@H](C)NC(=O)[C@H](CO)NC(=O)[C@H](C)NC(=O)[C@@H](N)Cc2ccc(O)cc2)CSSC[C@@H](C(=O)N[C@H](C(N)=O)[C@@H](C)O)NC(=O)[C@H](C)NC1=O`, the binding stoichiometry was 0.146 (Alpha-2-HS-glycoprotein, asialo (AHSG, Bos taurus, UniProt P12763); isothermal titration calorimetry; concentration not given, pH 7.0, 25 °C, together with: asialofetuin).
`C=CC(=O)N1CCC(COCC(=O)N2CCN(c3nc(-c4cnc(N)nc4C(F)F)nc(N4CCOC[C@@H]4C)n3)CC2)CC1` gave a remaining binding of 100% (EGFR (Homo sapiens, UniProt P00533, L861Q); KINOMEscan; 1 µM; baseline: DMSO control).
